Results collected from several papers.
Values joined by “and” are separate records of one study, mostly repeats; a detail may differ. ± marks the error that the study gave.

Compound	test	system	setting	how to read	endpoint	result
CCCC[C@@H]1NC(=O)[C@@H](NC(=O)[C@H](CCC(=O)O)NC(=O)CNC(=O)CN2CCN(CC(=O)O)CCN(CC(=O)O)CCN(CC(=O)O)CC2)CCCCNC(=O)C[C@@H](C(N)=O)NC(=O)[C@H](C(C)C)NC(=O)[C@@H]2CCCN2C(=O)[C@H](CCCNC(=N)N)NC(=O)CNC(=O)[C@H](Cc2c[nH]c3ccccc23)NC(=O)[C@H](CCCNC(=N)N)NC(=O)[C@@H](Cc2ccccc2)NC(=O)[C@H](Cc2c[nH]cn2)NC(=O)[C@H](CCC(=O)O)NC1=O [gallium-67 labelled]		C57 mice with B16/F1 melanoma, lung	intravenous, 2 h		tissue uptake	0.02 ± 0.02 %ID/g
O=C([O-])CN1CCN(CC(=O)[O-])CCN(CC(=O)[O-])CCN(CC(=O)[O-])CC1.[64Cu+2]		healthy athymic nude mice, large intestine	intravenous, 1 h		tissue uptake	0.37 %ID/g
O=C([O-])CN1CCN(CC(=O)[O-])CCN(CC(=O)NCCc2ccc3c(c2)C2C=CCC2C(c2cc4c(cc2Br)OCO4)N3)CCN(CC(=O)[O-])CC1.[111In+3] (centres unmarked)		mice with Hec50 tumour xenograft, large intestine	2 h, with: G-1 5 µg blocking		tissue uptake	20.1 ± 3.19 %ID/g
NC12CNCCNCC(NCc3ccc(CNC(=O)CCCC(=O)NCc4ccc(-c5nncnn5)cc4)cc3)(CNCCNC1)CNCCNC2.[64Cu+2]		athymic nude mice SW1222 xenograft, blood	12 h post injection, 24 h accumulation interval, with: huA33-TCO pretargeting		tissue uptake	2.2 %ID/g and 2.19 %ID/g
CC(C)[C@H](NC(=O)[C@@H]1CCCN1C(=O)[C@H](CCCNC(=N)N)NC(=O)[C@H](CS)NC(=O)[C@H](Cc1c[nH]c2ccccc12)NC(=O)[C@H](CCCNC(=N)N)NC(=O)[C@@H](Cc1ccccc1)NC(=O)[C@H](Cc1c[nH]cn1)NC(=O)[C@H](CCC(=O)O)NC(=O)[C@H](CS)NC(=O)[C@H](CS)NC(=O)CNC(=O)[C@@H]1CC(=O)N[C@@H](CCCNC(=N)N)C(=O)NCC(=O)N[C@@H](CC(=O)O)C(=O)N[C@H](Cc2ccc(O)cc2)C(=O)N1)C(N)=O [technetium-99m labelled]		C57 mice B16/F1 melanoma female, heart	iv, 2 h, with: NDP-MSH 10 µg co-injected		tissue uptake	1.36 ± 1.41 %ID/g
CCCC[C@H](NC(=O)CNC(=O)CNC(=O)CN1CCN(CC(=O)O)CCN(CC(=O)O)CCN(CC(=O)O)CC1)C(=O)N[C@H]1CC(=O)NCCCC[C@@H](C(N)=O)NC(=O)[C@H](Cc2c[nH]c3ccccc23)NC(=O)[C@H](CCCNC(=N)N)NC(=O)[C@@H](Cc2ccccc2)NC(=O)[C@H](Cc2c[nH]cn2)NC1=O [gallium-67 labelled]		female C57 mice, B16/F1 melanoma, muscle	intravenous, 0.037 MBq, 24 h		tissue uptake	0.3 ± 0.18 %ID/g
N=C(N)NCCC[C@H](NC(=O)CON=C[C@H](F)[C@@H](O)[C@H](O)[C@H](O)CO)C(=O)NCC(=O)N[C@@H](CC(=O)O)C(=O)O [fluorine-18 labelled]		nude mice, U-87 MG xenograft	intravenous, 2 h	reference: tumour over kidney	tissue ratio	0.74 ± 0.43
CN1C(=O)[C@@H](Cc2ccc(O)c(I)c2)NC(=O)CNC(=O)[C@H](Cc2ccc3ccccc3c2)NC(=O)[C@H](CCCNC(=N)N)NC(=O)[C@H]1CCCNC(=O)c1ccc(CNC(=O)CN2CCN(CC(=O)O)CCN(CC(=O)O)CCN(CC(=O)O)CC2)cc1 [lutetium-177 labelled]	item: 177Lu radioactivity	female CB-17 SCID mice, Daudi xenograft, adrenals	intravenous, 0.16 nmol per mouse, 96 h		tissue uptake	0.48 ± 0.03 %ID/g

A few entries again:
Compound	test	system	setting	how to read	endpoint	result
NC12CNCCNCC(NCc3ccc(CNC(=O)CCCC(=O)NCc4ccc(-c5nncnn5)cc4)cc3)(CNCCNC1)CNCCNC2.[64Cu+2]		athymic nude mice SW1222 xenograft, blood	12 h post injection, 24 h accumulation interval, with: huA33-TCO pretargeting		tissue uptake	2.2 %ID/g and 2.19 %ID/g
